Experimental data collected from several papers.
Every numbered part comes from another study and shows a few of its results, in no order. Substitutions count along the parent as printed.

Set 1
Target: TATA-box-binding protein 1 (TBP1, Arabidopsis thaliana, UniProt P28147, residues 1-200, full length assumed)
Technique: protein-binding microarray
Molecule type: double-stranded DNA, one strand shown
Sample: in vitro
Concentration: not given
Notes: k-mer, scored over probes, only values ≥0.25
Reading: higher = stronger binding
Target sequence (chain): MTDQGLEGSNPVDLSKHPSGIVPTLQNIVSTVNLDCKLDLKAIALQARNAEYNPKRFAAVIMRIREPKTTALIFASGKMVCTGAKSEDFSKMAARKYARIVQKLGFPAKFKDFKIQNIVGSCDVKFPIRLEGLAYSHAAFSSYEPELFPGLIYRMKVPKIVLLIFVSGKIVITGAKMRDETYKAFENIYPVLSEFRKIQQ
With `AACTACA` the E-score was 0.266.
`TCTATAA` gave an E-score of 0.376.
With `AATTCAT` the E-score was 0.26.
For `GTCTTAA`, the E-score was 0.261.
`AACATAA` has an E-score of 0.25.

Set 2
Target: CCNE1, cyclin fold, Cln2 fusion (human)
Technique: yeast growth competition, sequencing
Sample: yeast
Notes: strong parent motif
Reference: not given
Reading: higher = stronger binding
Parent: CDC25A docking peptide (human); PPHRRRLLFACSP
`S12R` — result for “normalised enrichment score”: 1.17.
Under “normalised enrichment score”, `F9W` is recorded as 0.912.
`L7D`: “normalised enrichment score” 0.0121.
`L8G` — result for “normalised enrichment score”: 0.628.
`P13D` — result for “normalised enrichment score”: 2.35.
For `C11P`, “normalised enrichment score” read 1.28.
Under “normalised enrichment score”, `R5I` is recorded as 1.72.

Set 3
Target: RNA binding protein fox-1 homolog 2, RRM domain, GST-SBP tag (RBFOX2, Homo sapiens, UniProt O43251-10, residues 100-194)
Technique: RNA Bind-n-Seq
Molecule type: RNA
Sample: in vitro
Concentration: 365 nM
Notes: natural RNA segment, single round, ends assumed
Reference: no-protein control
Reading: higher = stronger binding
All sequences stand within: GGGAGUUCUACAGUCCGACGAUC … UGGAAUUCUCGGGUGCCAA
Construct (chain): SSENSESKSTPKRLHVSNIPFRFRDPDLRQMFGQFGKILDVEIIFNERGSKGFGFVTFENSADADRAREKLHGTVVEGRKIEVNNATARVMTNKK
Under “RBNS enrichment (R)”, `AGAAGCUUCUGAAAGGUCCAGUUGAUGUGGUGGUAUCAGCCUACGCCCUCAGUGAACUACCCAGCAGGGCUGAUCGCAUUGAGGUCAUUCAGAACUUGUGGCGUAAGACA` is recorded as 0.377.
`CCUGUUUCGCUGUGGGAACAGGAGAGAAGGUGAUGAACAAACCACCAUCCGCUGCAUGGUCACAGUAGAGCCCCCGUGACUCGCCUGUCUUUGGGUCACCUGCAUUCCAU`: “RBNS enrichment (R)” 9.
`GGGAAAAAAAAGUUUGAUCUUCUUUUCCAGUAGAGAAUAGUUUGUGAAAUGAUAAGGGCAUUCUAUCUGCUUGCUGUGACCAGCGUGUGCACACAAACCUUAACAAGACU` — result for “RBNS enrichment (R)”: 0.35.
Under “RBNS enrichment (R)”, `UGGGAUCUACAGGCAGGGUAGGCACAGGUGCAGCCUAAGAAGGGAACCUGCUUCCUCUCCCUUCCAAAGACAGUGACAGCUGACUGAGGGCAAAGAGCAGGCACCACUCA` is recorded as 0.721.
Under “RBNS enrichment (R)”, `CUACCCUCACCCUUCUGGCCAGGAUCCCGCAGGGCAACAGCCCCAUCUGCUUGGCUGACCCCACACCCAGGACCACUGUCCGGCUCUAACACAGCUAUUAAGUGCUACCU` is recorded as 0.232.
`UAUUAUACUUUUCCUUUUUUAUAUAAUGUCUAACAAAAAAUACAGCUGCAACAUUUUGAUUCCUGUUAAUUUUGUUCUUUAAUUAAAUGACUACUUAUUGCAGGAAAUUA` — result for “RBNS enrichment (R)”: 1.22.
For `CAUCUUAAAUUCAUUUCUAGACUCAAAACCUGGAGAUGCAGCUACUGGAAUGGUGUUUUGUCAGACUUCCAAAUCCUGGAAGGACACAGUGAUGAAUGUACUAUGUCUGA`, “RBNS enrichment (R)” read 1.72.

Further values, each from its own experiment
With `PhoQ, residues 284 288 289 292 302 303 AEGLLW` the fold induction was 1.9 (PhoP, residues 12 14 15 18 19 AWHSL (Escherichia coli, UniProt P23836); Sort-seq, measured: YFP reporter; E. coli; PhoQ-PhoP variant library, with: 10 µM Mg2+; reference: high Mg2+ state, higher = stronger signaling).

Repeated from above (set 1):
With `AATTCAT` the E-score was 0.26.
`TCTATAA` gave an E-score of 0.376.
For `GTCTTAA`, the E-score was 0.261.
